# Measured values pooled from the literature.
# Each numbered part is a random draw from the data of one study; scales do not carry over between parts.

# Block 1
# Target: RNA binding protein fox-1 homolog 2, RRM domain, GST-SBP tag (RBFOX2, Homo sapiens, UniProt O43251-10, residues 100-194)
# Technique: RNA Bind-n-Seq
# Molecule type: RNA
# Medium: in vitro
# Concentration: 365 nM
# Notes: natural RNA segment, single round, ends assumed
# Relative to: no-protein control
# Reading: higher = stronger binding
Oligonucleotide,RBNS enrichment (R)
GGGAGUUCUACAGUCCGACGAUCCCUGUCCUCACUUCUCCUUUUUUCAGGUGACUCUCUGCUUGGCUCUUUAUCUUACUCUUCAGCUAAUGAAGUAGCAACAGUGUGUUACUAAUGAUUGCAAUCAUACAGUGUGGAAUUCUCGGGUGCCAA,0.47
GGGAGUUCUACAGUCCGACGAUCUUUAGUGGCUGUCUGAAACCCCAUGUGUGAAGGGCCCCUUGCCCAACAGGGUUGAGGUGGGGAGCAAGAGCAAUCUGUUUUUAUUUGCUCGUAUGUCAGGGACAGGUGUUUGGAAUUCUCGGGUGCCAA,3.99
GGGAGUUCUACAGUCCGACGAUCUUUUAAGAAUAAUAUAUUGACUUACUGAACUGAAGCAUUCUGAGUUGAAAGGAGCUCCAGAGGAGUGGAGUUCUGUGUUGCUCACAUGUUAAAAUCUUGCUCACCUUCAGUGGAAUUCUCGGGUGCCAA,0.438
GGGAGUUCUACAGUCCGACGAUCGUUGUGGUUUGUAGCAGGAAAGGACACUCCUGAUGUUGGGAAUUUGCAAGAAGAAUCUGGGCUGAGCUGCUUCAAACAAGGAGGCUUUGCUCUGGAGUGAGGAGGGAGUGUGGAAUUCUCGGGUGCCAA,1.42
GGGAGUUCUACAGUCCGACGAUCUUCUUGGAAACAAUGACAUUAAACAUAGAUUUGUGCCUUUGUGGCUCAGCCUGCUCUUUCAUAGUCAAGCUUGCUCAUUUAAUUUUUUUAUAAUCAUAUCCAGUAAACGGUGGAAUUCUCGGGUGCCAA,0.448
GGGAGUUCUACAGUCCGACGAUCUUGAAUUUGGGCUCCAUCAGUAAUUUUUGACAUUUUCACCAAAAUAUAGUUUGCACUUUUUAAUCUAAAGUCAUCCCUUCUGAGUGAAAUUUGCUCAUAAAGCAUUUGGAUGGAAUUCUCGGGUGCCAA,0.363
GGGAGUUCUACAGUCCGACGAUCUUUUGCUUGGGAAAAAGGAGUUUUUCUUUAGAAACAGUGCCAAGAAUGAUAUAAACUACUUUUAACUAAGAUGCCUAACAGGCUUUUAACACAGGUGUCCAUCUCCACUCUGGAAUUCUCGGGUGCCAA,0.407
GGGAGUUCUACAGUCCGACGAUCAGUUUUGGGUUUCUCCCCUGUCCCAAGGCUCAGAGUCUUCAUCUCCUACGUGACUGACUACAGUUGGUUUGGAGGCCCUGGACCUCUGUGGCGUCUUUGAAGCCUGGCCUUGGAAUUCUCGGGUGCCAA,0.398
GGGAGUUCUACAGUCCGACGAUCCUGCCUGUCCUCUGGUUAGGCCCCUCCCUCUCCACUAGUGGUGAAUGCAUGUGUCUGUCUGAUCAGCAUCACUGCACACGGAGGUCUAGUGAGCCUCUUGCUAAGUGUCAUGGAAUUCUCGGGUGCCAA,1.53
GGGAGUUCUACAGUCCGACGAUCAUUUUAAAGGCAAUUUAAGUUGCCUUUAGUUGACCGGUAAACUAAUCCAGUUGGAACAUACAUGCUUUUUUGAAGAAAUUACUUGAAUAAAAUAGUUUUCACAUUUUCAAUGGAAUUCUCGGGUGCCAA,0.662
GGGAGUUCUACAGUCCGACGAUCGAAGAAUGAACUCAGAGGAGGUUGUUUACAUGAGGUUCUCCCACUCACCAGCUGUUGAGAGUCUGCGAUUAUGAAGAGCAGGAUCUUAUUACUUCAAUGAAAGCAUGUAAUGGAAUUCUCGGGUGCCAA,8.74
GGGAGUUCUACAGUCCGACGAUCCAGUGCACAGCCUGCUGUCUGCAGUCGGCCAGACCAGGCUCCUCCCCAGCACACUCCCUGUGGGAUGGCCGCUGCUCAGGACACAGUGGGACAAAGUUGGGUUGAUAGGAUGGAAUUCUCGGGUGCCAA,1.24

# Block 2
# Target: Prothrombin, mature alpha-thrombin (F2, Homo sapiens, UniProt P00734)
# Technique: aptamer microarray, sandwich
# Molecule type: DNA with 2'F-ANA
# Medium: in vitro
# Concentration: 200 nM
# Notes: whole 15-mer aptamer, many near background
# Together with: Cy3 exosite-II aptamer, 400 nM
# Reading: higher = stronger binding
# Oligonucleotide: GGTTGGTGTGGTTGG
Modification,mean fluorescence intensity [a.u.]
2'F-ANA at 4 7 8 11 14,122
2'F-ANA at 1 3 4 6 8,249
2'F-ANA at 1 7 8 10 11,69.7
2'F-ANA at 1 3 6 8 9 12 13 14,212
2'F-ANA at 2 3 6 7 10 12 14 15,285
2'F-ANA at 2 3 4 5 6 8 9 11 12 15,149
2'F-ANA at 3 6 9,1070
2'F-ANA at 1 2 3 5 6 8 11 13,51.5
2'F-ANA at 3 5 6 7 10 15,50.1
2'F-ANA at 1 2 3 4 5 7 10 13 15,46.7
2'F-ANA at 1 2 7 10 11 12 14 15,51.3
2'F-ANA at 2 3 4 6 11 13 14,230
2'F-ANA at 1 2 3 4 5 7 8 11 13 14 15,49
2'F-ANA at 2 3 6 9 10 11 12 15,312
2'F-ANA at 2 3 6 10 11 12 14,240
2'F-ANA at 3 9 11 12,1410

# Block 3
# Target: Sal-like protein 4, full length isoform B (SALL4, Homo sapiens, UniProt Q9UJQ4-2, residues 1-616)
# Technique: universal PBM
# Molecule type: double-stranded DNA, one strand shown
# Medium: in vitro
# Concentration: not given
# Notes: 8-mer, flanks averaged, mean of replicates
# Reading: higher = stronger binding
# Construct (chain): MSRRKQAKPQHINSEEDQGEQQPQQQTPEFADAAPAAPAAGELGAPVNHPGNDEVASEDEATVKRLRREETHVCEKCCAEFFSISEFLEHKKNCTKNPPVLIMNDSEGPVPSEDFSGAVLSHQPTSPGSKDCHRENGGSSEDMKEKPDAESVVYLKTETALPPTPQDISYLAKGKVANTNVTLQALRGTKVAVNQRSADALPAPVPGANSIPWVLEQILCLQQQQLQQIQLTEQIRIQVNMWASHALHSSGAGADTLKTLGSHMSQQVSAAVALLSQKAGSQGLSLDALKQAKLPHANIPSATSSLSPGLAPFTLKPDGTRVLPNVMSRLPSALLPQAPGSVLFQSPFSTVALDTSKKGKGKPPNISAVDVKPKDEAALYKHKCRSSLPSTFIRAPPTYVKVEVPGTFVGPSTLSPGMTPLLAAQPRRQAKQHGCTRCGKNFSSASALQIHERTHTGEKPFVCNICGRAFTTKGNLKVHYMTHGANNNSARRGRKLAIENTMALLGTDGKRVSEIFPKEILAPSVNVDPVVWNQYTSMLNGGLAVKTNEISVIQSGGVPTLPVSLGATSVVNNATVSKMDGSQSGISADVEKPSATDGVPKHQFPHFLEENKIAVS
Oligonucleotide,E-score
AAATTTTC,0.232
CCTACCGC,-0.282
GGGCTAAA,-0.131
ACATTACC,0.078
AATTACGG,0.129
CGGTCGCC,-0.297
CGAGAATC,-0.0789
GGTATGCA,-0.0202
CCCCGCGG,-0.411
ATTAATAG,0.418
GCCTTTAA,0.111
GCCAACCA,-0.16
CTCTCTTC,-0.2
ACCTGGAG,-0.081
AGTCTCAT,0.141
ATGAGCAA,0.139
ATCTGCGA,-0.149
GTTACCTA,0.044
AACTGCTT,-0.0418
CACCTTAA,0.127
GCAAATCC,-0.0388
ACGTTAGG,0.0956
ACCTGCGG,-0.283
CAGGACAG,-0.184
AATGAGGC,-0.133

# Block 4
# Target: Histone acetyltransferase KAT6A, both winged helices, GST fusion (KAT6A, Homo sapiens, UniProt Q92794, residues 1-181)
# Technique: protein binding microarray
# Molecule type: double-stranded DNA, one strand shown
# Medium: in vitro
# Concentration: not given
# Notes: 8-mer, flanks averaged, mean of 2 arrays, mostly near background
# Relative to: not given
# Reading: higher = stronger binding
# Construct (chain): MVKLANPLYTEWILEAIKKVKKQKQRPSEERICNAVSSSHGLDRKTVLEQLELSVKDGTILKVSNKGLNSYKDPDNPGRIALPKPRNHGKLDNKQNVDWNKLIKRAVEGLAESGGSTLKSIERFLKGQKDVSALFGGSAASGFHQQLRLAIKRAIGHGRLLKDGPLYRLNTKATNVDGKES
Oligonucleotide,E-score
AACGATGC,-0.041
CGATTGTC,0.0871
AGAGAACT,-0.0325
CCTGACGC,0.0827
CACAAATC,-0.0184
AGCCTAAT,-0.342
TACAGTGA,-0.141
CAGGACGG,0.106
CAATTTCG,-0.0216
AATATAGA,0.0142
AGTAAATC,-0.196
AATTATCC,-0.0465
ACGATATG,0.0779
AACTATTA,-0.0824
CTATACCA,-0.108
AGATCTAG,-0.17
ACGCTATA,0.124
AACAGAAT,0.00443

# Some of these lines once more (block 2):
Modification,mean fluorescence intensity [a.u.]
2'F-ANA at 3 9 11 12,1410
2'F-ANA at 1 2 3 4 5 7 8 11 13 14 15,49
2'F-ANA at 2 3 6 9 10 11 12 15,312
2'F-ANA at 2 3 4 5 6 8 9 11 12 15,149
2'F-ANA at 1 2 7 10 11 12 14 15,51.3
2'F-ANA at 2 3 6 7 10 12 14 15,285
2'F-ANA at 2 3 4 6 11 13 14,230
